# Published values from different studies.
# Numbers after ± are the reported error.
# EPHX2: Bifunctional epoxide hydrolase 2 (EPHX2, Homo sapiens, UniProt P34913)
# PGR: Progesterone receptor (PGR, Homo sapiens, UniProt P06401)
SMILES,target,test,test system,setting,scale,measurement,result
COCCOC(=O)Nc1ccc2c(c1)c(Cc1ccc(C(=O)NS(=O)(=O)c3ccc(C(F)(F)F)cc3)cc1OC)cn2C,"Tumor necrosis factor receptor superfamily member 1A (Homo sapiens, UniProt P19438)","TNF-induced IκB degradation, inhibitor",HEK293 cells,0.01 to 500 nM,,IκB degradation,inhibited
CCC(=O)N1CCN(C(=O)c2ccc(NC(=O)NC34CC5CC(C)(CC(C)(C5)C3)C4)cc2)CC1,EPHX2,,,,,lipophilic ligand efficiency,6.21
C=CCn1c(=O)c2ccccc2n2c(SCC(=O)Nc3ccc(NC(C)=O)cc3)nnc12,"CHRM2 (Homo sapiens, UniProt P08172)","ERK1/2 phosphorylation, antagonist",human cells,"10 µM, together with: [3H]NMS, iperoxo at EC80",,pA2,10.8 ± 0.29
NC(=O)C1CCNC(=O)C(Cc2ccc([N+](=O)[O-])cc2)NC(=O)C(Cc2ccco2)NC(=O)C(CC2CC2)NC(=O)C=CC(=O)N1 (stereo not shown),"MAP2K6 (Homo sapiens, UniProt P52564)",DNA-templated library selection,,one selection round,,enrichment factor,2.2
CC(=O)OC1(C(C)=O)CCC2C3C=C(C)C4=CC(=O)C(O)CC4(C)C3CCC21C (stereo not shown),PGR,"agonist, measured: GREB1",T47D,"100 nM, 8 h",relative to: ethanol vehicle,mRNA fold change,2.3 ± 0.1 fold change
N=C(N)NCCC[C@@H]1NC(=O)[C@H](Cc2c[nH]c3ccccc23)NC(=O)[C@H](CCCNC(=N)N)NC(=O)[C@H](Cc2c[nH]c3ccccc23)NC(=O)[C@H](CCCNC(=N)N)NC(=O)[C@H](Cc2c[nH]c3ccccc23)NC(=O)[C@H](CCCNC(=N)N)NC(=O)[C@H](Cc2c[nH]c3ccccc23)NC(=O)[C@H](CCCNC(=N)N)NC(=O)[C@H](Cc2c[nH]c3ccccc23)NC(=O)[C@H](CCCNC(=N)N)NC(=O)[C@H](Cc2c[nH]c3ccccc23)NC(=O)[C@H](CCCNC(=N)N)NC(=O)[C@H](Cc2c[nH]c3ccccc23)NC(=O)[C@H](CCCNC(=N)N)NC(=O)[C@H](Cc2c[nH]c3ccccc23)NC(=O)[C@H](CCCNC(=N)N)NC(=O)[C@H](Cc2c[nH]c3ccccc23)NC1=O,"PRKCA (Homo sapiens, UniProt P17252)","enzyme activity, inhibitor",,5 µM,,remaining activity,5%
CC[C@H](C)[C@H](N)C(=O)N[C@@H](CC(N)=O)C(=O)N1CCC[C@H]1C(=O)N[C@H](C(=O)NCC(=O)N[C@@H](CS)C(=O)N[C@@H](C)C(=O)N[C@@H](CCCNC(=N)N)C(=O)N[C@@H](CO)C(=O)N[C@@H](CCC(=O)O)C(=O)N1CCC[C@H]1C(=O)N[C@@H](CCCCN)C(=O)N[C@H](C(=O)N[C@@H](CC(C)C)C(N)=O)[C@@H](C)CC)[C@@H](C)O,"WDR5 (Homo sapiens, UniProt P61964)","binding, BLI",,,,koff,0.0077 s⁻¹
CC(CCC(=O)SCCNC(=O)CCNC(=O)C(O)C(C)(C)CO)C1CCC2C3C(O)CC4CC(O)CCC4(C)C3CC(O)C12C (stereo not shown),"Pantetheinase (VNN1, Homo sapiens, UniProt O95497)","hydrolysis, substrate, measured: pantothenic acid",,"15 min, 37 °C",,Km,39.8 ± 20.3 µM
Cc1ccc2ccc3ccc(C)nc3c2n1.Cc1ccc2ccc3ccc(C)nc3c2n1.O.[Cl-].[Cl-].[Cl-].[Yb+3],"Albumin (ALB, Bos taurus, UniProt P02769)",fluorescence quenching,,303 K,,ΔG°,-7.4307 ± 0.00717 kcal/mol
CC(C)C(N)C(=O)NC1CCN(C(=O)c2ccc(NC(=O)NC34CC5CC(C)(CC(C)(C5)C3)C4)cc2)CC1 (stereo not shown),EPHX2,,,,,lipophilic ligand efficiency,6.85
CNc1ccccc1C(=O)O[C@H]1C[C@H](n2cnc3c(N)ncnc32)O[C@@H]1COP(=O)(O)OP(=O)(O)O,"Unconventional myosin-Va (Gallus gallus, UniProt Q02440, D297C/G292C/I296C/S293C/V295G)",stopped-flow FRET,,"15 °C, together with: MgCl2 2 mM",,association rate constant,3.16e+06 ± 90000 M⁻¹ s⁻¹
CC(C)Cn1c(SCC(=O)N2CCc3ccccc3C2)nc2cc(Cl)ccc2c1=O,"CRHR1 (Homo sapiens, UniProt P34998)","calcium signal, antagonist",,together with: CRF at EC80,,IC50,inactive
O=C(Nc1ccc(Cl)cc1)Nc1ccc2[nH]ccc2c1,"Alpha-synuclein (SNCA, Homo sapiens, UniProt P37840)","fibril formation, ThT fluorescence kinetics",,"100 µM, α-syn 2 µM, plateau phase",relative to: DMSO vehicle,maximum ThT fluorescence,14 ± 3%
CCCCCCCCCCSc1nc2c([nH]1)c(=S)n(C)c(=S)n2C,PGR,"reporter gene, antagonist, MMTV-luciferase",T47D/A1-2,"10 µM, 24 h, together with: 5 nM progesterone",relative to: maximal activity,remaining activity,66%
"CC(=O)C12NC(C)(C)CC1(C)C(=O)C1=C2c2c(c3c4n2C(C)(C)CC2=C4C4(CC(C)(C)NC(C)(C4)C2=O)CC3(C)C)C(=O)C(C)(C)N1 (single isomer, unassigned; (-))","OPRD1 (Homo sapiens, UniProt P41143)","agonist, cAMP",CHO,concentration not given,,agonist activity,inactive
COc1ccc(NC(=O)CCCCc2ccccc2)c(C)n1,"Cocaine esterase (CES2, Homo sapiens, UniProt O00748)",substrate,,"50 µM, pH 8, 37 °C, enzyme purity 4%",,specific activity,18 pmol/min/µg
CCCC[C@@H]1NC(=O)[C@H](Cc2ccc(O)cc2)NC(=O)[C@@H]2CCCN2C(=O)[C@H](CC(=O)O)NC(=O)[C@H](C)NC(=O)[C@H](Cc2ccccc2)NC(=O)[C@@H]2CSCCC(=O)N3CN(CN(C3)C(=O)CCSC[C@@H](C(=O)N[C@@H](C)C(N)=O)NC1=O)C(=O)CCSC[C@H](NC(C)=O)C(=O)N[C@@H](CC(C)(C)C)C(=O)N1CCC[C@H]1C(=O)N[C@@H](CCC(=O)O)C(=O)N[C@H](CCCCNC(=O)CCc1cn(CCOCCOCCOCCN(CCOCCOCCOCCC(=O)N[C@H]3CSCCC(=O)N4CN5CN(C4)C(=O)CCSC[C@H](NC(=O)[C@@H](CC(=O)O)NC(=O)[C@H](Cc4cccc6ccccc46)NC(=O)[C@@H]4CCCN4C3=O)C(=O)N[C@@H](CCSC)C(=O)N[C@@H](CCCCNC(=N)N)C(=O)N[C@@H](CC(=O)O)C(=O)N[C@@H](Cc3c[nH]c4ccccc34)C(=O)N[C@@H](CO)C(=O)N[C@@H]([C@@H](C)O)C(=O)N3CCC[C@H]3C(=O)N3C[C@H](O)C[C@H]3C(=O)N[C@@H](Cc3c[nH]c4ccccc34)C(=O)N[C@H](C(N)=O)CSCCC5=O)CCOCCOCCOCCn3cc(CCC(=O)NCCCC[C@H]4NC(=O)[C@H](CCC(=O)O)NC(=O)[C@@H]5CCCN5C(=O)[C@H](CC(C)(C)C)NC(=O)[C@@H](NC(C)=O)CSCCC(=O)N5CN6CN(C5)C(=O)CCSC[C@H](NC(=O)[C@H](Cc5ccc(O)cc5)NC(=O)[C@@H]5CCCN5C4=O)C(=O)N[C@@H](Cc4ccccc4)C(=O)N[C@@H](C)C(=O)N[C@@H](CC(=O)O)C(=O)N4CCC[C@H]4C(=O)N[C@@H](Cc4ccc(O)cc4)C(=O)N[C@@H](CCCC)C(=O)N[C@H](C(=O)N[C@@H](C)C(N)=O)CSCCC6=O)nn3)nn1)C(=O)N1CCC[C@H]1C(=O)N[C@@H](Cc1ccc(O)cc1)C(=O)N2,"Nectin-4 (Homo sapiens, UniProt Q96NY8)","receptor occupancy, flow cytometry",A549 (target-negative),"concentration not given, 1 h",,binding,no binding
CCCCCCCCSc1nc2c([nH]1)c(=S)n(C)c(=S)n2C,"Nr3c1 (Rattus norvegicus, UniProt P06536)","reporter gene, antagonist, MMTV-luciferase",T47D/A1-2,"10 µM, 24 h, together with: 5 nM dexamethasone",relative to: maximal activity,remaining activity,97%
O=C([O-])CN1CCN(CC(=O)[O-])CCN(C(CCC(=O)NCCCCCN(CCCC[C@H](NC(=O)N[C@@H](CCC(=O)O)C(=O)O)C(=O)O)C(=O)c2ccc(I)cc2)C(=O)O)CCN(CC(=O)[O-])CC1.[68Ga+3] (stereo partly shown),"FOLH1 (Homo sapiens, UniProt Q04609)",PET/CT,"human, primary prostate lesion",,,SUVmax,~29.7
O=c1ncccn1[C@H]1C[C@H](O)[C@@H](CO)O1,"Cytidine deaminase (CDA, Homo sapiens, UniProt P32320)",,,together with: deoxycytidine,,Km/Ki ratio,24
CC(C)(C)CCN1C[C@@H]2[C@@H](CNC(=O)c3cc(Cl)cc(Cl)c3)[C@@H]2C1.Cl,"CACNA1H (Homo sapiens, UniProt O95180)",whole-cell patch clamp,"HEK-293T, transfected",100 nM,,activation slope factor,6.81 ± 0.15 mV
CN1CCN(CC(=O)N2N=C3/C(=C/c4ccccc4)CCCC3C2c2ccccc2)CC1 (mixture of isomers),"ALOX15 (Homo sapiens, UniProt P16050)",activator,,"10 µM, together with: arachidonic acid substrate",,rate increase,67%

# Excerpt of the above:
SMILES,target,test,test system,setting,scale,measurement,result
N=C(N)NCCC[C@@H]1NC(=O)[C@H](Cc2c[nH]c3ccccc23)NC(=O)[C@H](CCCNC(=N)N)NC(=O)[C@H](Cc2c[nH]c3ccccc23)NC(=O)[C@H](CCCNC(=N)N)NC(=O)[C@H](Cc2c[nH]c3ccccc23)NC(=O)[C@H](CCCNC(=N)N)NC(=O)[C@H](Cc2c[nH]c3ccccc23)NC(=O)[C@H](CCCNC(=N)N)NC(=O)[C@H](Cc2c[nH]c3ccccc23)NC(=O)[C@H](CCCNC(=N)N)NC(=O)[C@H](Cc2c[nH]c3ccccc23)NC(=O)[C@H](CCCNC(=N)N)NC(=O)[C@H](Cc2c[nH]c3ccccc23)NC(=O)[C@H](CCCNC(=N)N)NC(=O)[C@H](Cc2c[nH]c3ccccc23)NC(=O)[C@H](CCCNC(=N)N)NC(=O)[C@H](Cc2c[nH]c3ccccc23)NC1=O,"PRKCA (Homo sapiens, UniProt P17252)","enzyme activity, inhibitor",,5 µM,,remaining activity,5%
CC[C@H](C)[C@H](N)C(=O)N[C@@H](CC(N)=O)C(=O)N1CCC[C@H]1C(=O)N[C@H](C(=O)NCC(=O)N[C@@H](CS)C(=O)N[C@@H](C)C(=O)N[C@@H](CCCNC(=N)N)C(=O)N[C@@H](CO)C(=O)N[C@@H](CCC(=O)O)C(=O)N1CCC[C@H]1C(=O)N[C@@H](CCCCN)C(=O)N[C@H](C(=O)N[C@@H](CC(C)C)C(N)=O)[C@@H](C)CC)[C@@H](C)O,"WDR5 (Homo sapiens, UniProt P61964)","binding, BLI",,,,koff,0.0077 s⁻¹
CC(CCC(=O)SCCNC(=O)CCNC(=O)C(O)C(C)(C)CO)C1CCC2C3C(O)CC4CC(O)CCC4(C)C3CC(O)C12C (stereo not shown),"Pantetheinase (VNN1, Homo sapiens, UniProt O95497)","hydrolysis, substrate, measured: pantothenic acid",,"15 min, 37 °C",,Km,39.8 ± 20.3 µM
